Measured values pooled from the literature.
Each line is one published result; not all experiments were run side by side. Several values in a cell are separate wells, animals, samples, runs or records. Numbers after ± are the reported error.
SLC6A3: Sodium-dependent dopamine transporter (SLC6A3, Homo sapiens, UniProt Q01959)
UniProt Q01959, sequence (whole entry, unmodified, looked up): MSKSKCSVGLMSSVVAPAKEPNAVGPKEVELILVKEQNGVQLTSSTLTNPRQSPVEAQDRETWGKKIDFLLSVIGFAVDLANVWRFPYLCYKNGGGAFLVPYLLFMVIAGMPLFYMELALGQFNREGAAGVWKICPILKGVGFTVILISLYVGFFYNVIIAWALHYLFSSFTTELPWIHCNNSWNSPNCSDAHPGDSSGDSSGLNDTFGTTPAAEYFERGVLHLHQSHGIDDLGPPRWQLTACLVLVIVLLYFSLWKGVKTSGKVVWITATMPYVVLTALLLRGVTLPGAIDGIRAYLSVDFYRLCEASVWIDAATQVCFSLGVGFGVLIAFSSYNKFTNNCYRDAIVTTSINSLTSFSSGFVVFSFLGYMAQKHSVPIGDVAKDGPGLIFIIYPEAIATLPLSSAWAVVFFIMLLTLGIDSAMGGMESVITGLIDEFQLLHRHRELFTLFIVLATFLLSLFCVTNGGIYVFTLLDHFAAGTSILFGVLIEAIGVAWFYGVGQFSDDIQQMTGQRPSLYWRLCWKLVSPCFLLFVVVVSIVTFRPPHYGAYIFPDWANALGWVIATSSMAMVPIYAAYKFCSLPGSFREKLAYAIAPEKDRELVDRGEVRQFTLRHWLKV

For `c1ccc2sc(C3(N4CCCCC4)CCCCC3)cc2c1`, the Hill coefficient was 1 (SLC6A3; binding, antagonist, radioligand binding).
`CCCC(C(=O)c1ccc2c(c1)OCO2)N1CCCC1` (stereo not shown): “time to steady-state inhibition” over 5 min (SLC6A3; dopamine-induced inward current, inhibitor, two-electrode voltage clamp; Xenopus oocytes expressing hDAT; 0.5 µM, holding potential -60 mV, together with: dopamine 5 µM).
With `CN[C@@]1(c2ccccc2Cl)CCCCC1=O` the inhibition was 13% (SLC6A3; radioligand binding, antagonist, radioligand displacement; 30 µM).
`CNCC(=O)c1ccccc1` gave a potency ratio of 7.5 fold (SLC6A3; substrate release, releaser; relative to: compound EC50 over methcathinone).
`CCCC(C(=O)c1ccc2c(c1)OCO2)N1CCCC1` (stereo not shown): “maximal inhibition rate (kapp max)” 4.5 s⁻¹ (SLC6A3; DAT-mediated current, inhibitor, electrophysiology; human DAT-expressing cells; 100 µM, together with: 30 µM dopamine).
`O=c1ccc2ccccc2o1` gave an inhibition of -0.14% (SLC6A3; antagonist radioligand binding; 10 µM, SafetyScreen44).
With `c1ccc2cc([C@]34CNC[C@H]3C4)ccc2c1` the dopamine uptake was 131% and 129% and 84.9% (Sodium-dependent dopamine transporter (SLC6A3, Homo sapiens, UniProt Q01959, F326A); inhibitor, [3H]dopamine uptake; 1 nM, F326A mutant; relative to: no inhibitor).
For `CCC[C@H](C(=O)c1ccc(C)cc1)N1CCCC1`, “maximal inhibition rate (kapp max)” read 3.49 s⁻¹ (SLC6A3; DAT-mediated current, inhibitor, electrophysiology; human DAT-expressing cells; 100 µM, together with: 30 µM dopamine).
The Hill coefficient of `c1ccc2sc(C3(N4CCCCC4)CCCCC3)cc2c1` is reported as 1.1 (SLC6A3; radioligand binding, antagonist; reference compound).
`COC(=O)[C@H]1[C@@H](OC(=O)c2ccccc2)C[C@@H]2CC[C@H]1N2C` — result for “maximal inhibition rate (kapp)”: 1.33 s⁻¹ (SLC6A3; transporter current, inhibitor; together with: dopamine 30 µM).
With `CCC(CNc1nc(-c2cn3ccnc3cc2C)nc2ccccc12)c1ccccc1` (stereo not shown) the Emax was 48.7 ± 7.58% (SLC6A3; [3H]WIN35,428 binding, inhibitor; CHO-K1 expressing transporter).
With `COC(=O)[C@H]1[C@@H](OC(=O)c2ccccc2)C[C@@H]2CC[C@H]1N2C` the Hill coefficient was -1.2 ± 0.1 (SLC6A3; HEK293-hDAT).
With `c1ccc(C(NCCNC(c2ccccc2)c2ccccc2)c2ccccc2)cc1` the inhibition was 88% (SLC6A3; binding; 10 µM, Eurofins selectivity panel).

Some of these lines once more:
With `COC(=O)[C@H]1[C@@H](OC(=O)c2ccccc2)C[C@@H]2CC[C@H]1N2C` the Hill coefficient was -1.2 ± 0.1 (SLC6A3; HEK293-hDAT).
